Measurements pooled from the literature.
Lines come from different studies, so protocols differ. ± gives the spread as reported.
Target: Albumin (ALB, Homo sapiens, UniProt P02768)

SMILES | test | system | setting | endpoint | value
O=C1CCC(c2ccc(OCC(=O)OCCCCc3cn(CCCCCCN4CCc5c(c6ccccc6n5Cc5ccc(C(=O)NO)cc5)C4)nn3)cc2)C(=O)N1 (centres unmarked) | HPLC on immobilised albumin column |  |  | fraction unbound | 0.033
Cc1c(C)c2c(c(C)c1O)CCC(C)(COc1ccc(CC3SC(=O)NC3=O)cc1)O2 (centres unmarked) | equilibrium dialysis | human serum albumin 50 mg/mL | 6 h, 37 °C | fraction unbound | 0.027
O=C(Nc1ccnc(C(F)(F)F)c1)Nc1cccc2c1OC(F)(F)O2 | HSA column HPLC |  |  | unbound fraction | 0.03
O=C(COc1ccc(C2CCC(=O)NC2=O)cc1)NCCCCCCN1CCc2c(c3ccccc3n2Cc2ccc(C(=O)NO)cc2)C1 (centres unmarked) | HPLC on immobilised albumin column |  |  | fraction unbound | 0.037
O=S(=O)(c1ccc(F)cc1)N1CCNCC1COc1ccc2c(c1)OCO2 (centres unmarked) | HPLC retention on immobilised albumin | human serum albumin column |  | fraction unbound | ~0.1
CC1(C)NC(=O)N(c2ccc3c(c2)OC(F)(F)O3)C1=O |  |  |  | unbound fraction | 0.575
O=C(Nc1ccc(F)cc1)N1CCNCC1COc1ccc2ccccc2c1 (centres unmarked) | HPLC retention on immobilised albumin | human serum albumin column |  | fraction unbound | < 0.02
CN(CCCCCCNC(=O)COc1ccc(C2CCC(=O)NC2=O)cc1)Cc1cn(Cc2ccc(C(=O)NO)cc2)c2ccccc12 (centres unmarked) | HPLC on immobilised albumin column |  |  | fraction unbound | 0.039
CC1(C)NC(=O)N(c2ccc(F)c(CC(F)(F)F)c2)C1=O |  |  |  | unbound fraction | 0.646
OC[C@H]1O[C@@H](Oc2cc3c(O)cc(O)cc3[o+]c2-c2ccc(O)c(O)c2)[C@H](O)[C@@H](O)[C@@H]1O | visible absorption spectroscopy | acetonitrile–HSA system | 50 µM, pH 7, with: HSA 200 µM | λmax | 608 nm
Nc1cccc2c1CN(C1CCC(=O)NC1=O)C2=O (centres unmarked) | equilibrium dialysis | human serum albumin 50 mg/mL | 6 h, 37 °C | fraction unbound | 0.938
CC1(C)NC(=O)N(c2ccc(F)c(OC(F)(F)F)c2)C1=O |  |  |  | unbound fraction | 0.483
O=C(Nc1ccc2c(c1)B(O)OC2)Nc1ccc(F)c(C(F)(F)F)c1 | HSA column HPLC |  |  | unbound fraction | 0.033
OC[C@H]1O[C@@H](Oc2cc3c(O)cc(O)cc3[o+]c2-c2ccc(O)cc2)[C@H](O)[C@@H](O)[C@@H]1O | binding, visible absorption spectroscopy |  | pH 7, with: HSA 200 µM | Kd | 17.9 ± 3.53 µM
CC1(C)NC(=O)N(c2ccc(F)c(F)c2)C1=O |  |  |  | unbound fraction | 0.873
COc1cc(-c2[o+]c3cc(O)cc(O)c3cc2O[C@@H]2O[C@H](CO)[C@@H](O)[C@H](O)[C@H]2O)cc(O)c1O | binding, fluorescence quenching |  | pH 7, 40 °C, HSA 2 µM | Kd | 69.1 ± 4.58 µM
CC1(C)NC(=O)N(c2cc(C(F)(F)F)c(F)cc2C#N)C1=O |  |  |  | unbound fraction | 0.758
CN(CCOc1ccc(CC2SC(=O)NC2=O)cc1)c1ccccn1 (centres unmarked) | equilibrium dialysis | human serum albumin 50 mg/mL | 6 h, 37 °C | fraction unbound | 0.039
O=C1NC(CF)(CF)C(=O)N1c1ccc(F)c(C(F)(F)F)c1 |  |  |  | unbound fraction | 0.271
COc1cc(-c2[o+]c3cc(O)cc(O)c3cc2O[C@@H]2O[C@H](CO)[C@@H](O)[C@H](O)[C@H]2O)ccc1O | binding, visible absorption spectroscopy |  | pH 7, with: HSA 200 µM | Kd | 17.4 ± 3.75 µM
CC1(C)NC(=O)N(c2ccc(F)c(S(C)(=O)=O)c2)C1=O |  |  |  | unbound fraction | 0.941
O=C(Nc1ccc(F)cc1)N1CCNCC1COc1ccc2c(c1)OCO2 (centres unmarked) | HPLC retention on immobilised albumin | human serum albumin column |  | fraction unbound | ~0.1
Cc1cc(C)c(CNC(=O)c2cc(Cl)c3c(c2C)O[C@@](C)([C@H]2CC[C@H](N(C)C)CC2)O3)c(=O)[nH]1 | ultracentrifugation | 4% human serum albumin solution | 10000 ng/mL, 160 min | unbound fraction | 0.636

Repeated from above:
SMILES | test | system | setting | endpoint | value
OC[C@H]1O[C@@H](Oc2cc3c(O)cc(O)cc3[o+]c2-c2ccc(O)cc2)[C@H](O)[C@@H](O)[C@@H]1O | binding, visible absorption spectroscopy |  | pH 7, with: HSA 200 µM | Kd | 17.9 ± 3.53 µM
CC1(C)NC(=O)N(c2ccc(F)c(F)c2)C1=O |  |  |  | unbound fraction | 0.873
COc1cc(-c2[o+]c3cc(O)cc(O)c3cc2O[C@@H]2O[C@H](CO)[C@@H](O)[C@H](O)[C@H]2O)cc(O)c1O | binding, fluorescence quenching |  | pH 7, 40 °C, HSA 2 µM | Kd | 69.1 ± 4.58 µM
